Literature values as cited in several papers.
Compare with care: the assays were run in different laboratories. ± marks the error that the study gave. Positions of bridges follow the written chain, without caps; N, C: chain ends. Ends that are not written are not given here. No end group written: not given here.
B1: CCL4; sequence looked up; chain APMGSDPPTACCFSYTARKLPRNFVVDYYETSSLCSQPAVVFQTKRSKQVCADPSESWVQEYVYDLELN
Chain of UniProt P06241 (whole entry, looked up): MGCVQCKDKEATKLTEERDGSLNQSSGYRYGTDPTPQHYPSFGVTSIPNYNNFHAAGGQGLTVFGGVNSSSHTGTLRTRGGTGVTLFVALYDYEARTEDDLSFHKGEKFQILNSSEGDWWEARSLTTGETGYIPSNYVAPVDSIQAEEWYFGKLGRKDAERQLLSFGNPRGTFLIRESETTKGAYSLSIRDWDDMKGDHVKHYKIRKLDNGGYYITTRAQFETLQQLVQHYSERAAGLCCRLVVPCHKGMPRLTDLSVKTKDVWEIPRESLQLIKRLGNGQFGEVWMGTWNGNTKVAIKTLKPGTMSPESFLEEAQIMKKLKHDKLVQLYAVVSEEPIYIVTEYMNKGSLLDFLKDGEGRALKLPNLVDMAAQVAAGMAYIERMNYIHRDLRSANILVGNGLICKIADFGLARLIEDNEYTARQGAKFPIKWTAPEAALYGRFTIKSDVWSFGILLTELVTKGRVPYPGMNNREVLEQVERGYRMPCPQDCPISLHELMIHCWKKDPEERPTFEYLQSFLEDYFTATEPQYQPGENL

| Molecule | target or system | test | system | setting | measurement | value |
| --- | --- | --- | --- | --- | --- | --- |
| KSRPPRPPPKPLHLR | Abp1 SH3 domain (Saccharomyces cerevisiae) | binding | peptide | – | Kd | 210 nM |
| CCL3 | US28 D15A | binding, radioligand competition | – | – | Kd | 1.4 nM |
| buforin II | Staphylococcus aureus | – | ATCC 25923 | literature value | MIC | 12.5 µM |
| LPRTQPDGTSVP | human tankyrase-2 ARC4 domain | binding | peptide | – | Kd | 17200 nM |
| Ac-MDRWLVKWKKKRKIRRRRRRRRRR (N-acetyl) | PCNA | binding | – | – | Kd | 1340 nM |
| Ac-APPIPPPRRKR-NH2 (N-acetyl, C-amide) | Tyrosine-protein kinase Fyn, SH3 domain (FYN, Homo sapiens, UniProt P06241) | binding | peptide | – | Kd | 620 nM |
| tixagevimab | SARS-CoV-2 spike protein | binding | – | – | Kd | 0.0028 nM |
| B1 (CCL4) | US28 T12A | binding, radioligand competition | – | – | Kd | 5.7 nM |
| pegcetacoplan | – | – | rabbit | subcutaneous, 7, 28, 140 mg/kg/day daily, 28 days | tolerability | not toxic |
| ubiquitin | Tumor susceptibility gene 101 protein, UEV domain (Homo sapiens, UniProt Q99816) | binding | – | – | Kd | 500000 to 800000 nM |
| TVLICMNICWTGETQ (disulfide 5-9 (inferred)) (disulfide) | streptavidin | binding, bacterial display flow cytometry | – | – | Kd | 4 nM |
| melittin | – | – | rat erythrocytes | 200 µM | hemolysis | 106 ± 17.6% |
| ICSYVMYTTCFLRVY (disulfide 2-10 (inferred)) (disulfide) | streptavidin | binding, bacterial display flow cytometry | – | – | Kd | 8 nM |
| enfortumab vedotin | – | – | monkey | – | half-life | 41 h |
| PVDPFEAQWAALENK | MDM2 SWIB domain | binding | peptide | – | Kd | 3300 nM |

Excerpt of the above:
| Molecule | target or system | test | system | setting | measurement | value |
| --- | --- | --- | --- | --- | --- | --- |
| pegcetacoplan | – | – | rabbit | subcutaneous, 7, 28, 140 mg/kg/day daily, 28 days | tolerability | not toxic |
| ubiquitin | Tumor susceptibility gene 101 protein, UEV domain (Homo sapiens, UniProt Q99816) | binding | – | – | Kd | 500000 to 800000 nM |
